Assay results gathered from unrelated publications.
Lines come from different studies, so protocols differ. Values joined by “and” are separate records of one study, mostly repeats; a detail may differ.
BRD4 BD1: Bromodomain-containing protein 4, BD1 (BRD4, Homo sapiens, UniProt O60885)
BRD4 BD2: Bromodomain-containing protein 4, BD2 (BRD4, Homo sapiens, UniProt O60885)

SMILES = COc1cc(-c2cc(C(C)=O)n3ccccc23)c(OC)cc1Cn1ccnc1; target = BRD4 BD1; assay = inhibitor; quantity = IC50; value = 16000 nM
SMILES = O=C1CCCN1c1cccc(NS(=O)(=O)c2cccc(Br)c2)c1; target = BRD4 BD1; assay = binding, differential scanning fluorimetry; quantity = IC50; value = 41500 nM
SMILES = COc1cc(OC)c2c(=O)cc(-c3cc(C)c(OCCCN4CCN(C)CC4)c(C)c3)oc2c1; target = BRD4 BD2; assay = cell-free assay, TR-FRET; quantity = IC50; value = 87 nM
SMILES = Cc1sc2c(c1C)C(c1ccc(Cl)cc1)=N[C@@H](CC(=O)NCC(=O)N1CCC3(CCC(C(=O)N4CCN(C(=O)c5cc(Cc6n[nH]c(=O)c7ccccc67)ccc5F)CC4)CC3)CC1)c1nnc(C)n1-2; target = Bromodomain-containing protein 4 (BRD4, Homo sapiens, UniProt O60885); assay = target engagement, HiBiT dBET6 competition; system = Jurkat HiBiT-tagged cells; quantity = EC50; value = 1390 nM
SMILES = CCOc1ccc(C(C)=O)cc1NC(=O)c1cccc(C(=O)O)c1; target = BRD4 BD1; assay = binding, competition with immobilised ligand; quantity = Kd; value = > 50000 nM
SMILES = O=C1CCCN1c1cccc(NS(=O)(=O)c2cc(Br)ccc2Br)c1; target = BRD4 BD1; assay = binding, differential scanning fluorimetry; quantity = IC50; value = 43700 nM
SMILES = Cn1cc(-c2cc(N3CCCCS3(=O)=O)ccc2N[C@H]2CC[C@](C)(O)CC2)c2cc[nH]c2c1=O; target = BRD4 BD2; assay = cell-free assay, TR-FRET; quantity = IC50; value = 4.92 nM
SMILES = O=C1CCCN1c1cccc(NS(=O)(=O)c2c(F)cccc2F)c1; target = BRD4 BD1; assay = binding, differential scanning fluorimetry; quantity = IC50; value = 21100 nM
SMILES = CC(=O)N1c2ccc(-c3ccc(CNC(=O)c4cn5cc(-c6cnc(N)nc6)nc(N6CCOCC6)c5n4)cc3)cc2CC[C@@H]1C; target = BRD4 BD2; assay = binding, competition with immobilised ligand; quantity = Kd; value = 0.89 nM
SMILES = Cc1cc2c(cc1N)n(C)c(=O)n2C; target = BRD4 BD2; quantity = IC50; value = > 14800 nM
SMILES = Cc1ncsc1-c1ccc(CNC(=O)[C@@H]2C[C@@H](O)CN2C(=O)[C@@H](NC(=O)COCC(C)(COCCOCCOCCNC(=O)C[C@@H]2N=C(c3ccc(Cl)cc3)c3c(sc(C)c3C)-n3c(C)nnc32)COCCOCCOCCNC(=O)C[C@@H]2N=C(c3ccc(Cl)cc3)c3c(sc(C)c3C)-n3c(C)nnc32)C(C)(C)C)cc1; target = Bromodomain-containing protein 4, short isoform (BRD4, Homo sapiens, UniProt O60885); assay = BROMOscan; quantity = Kd; value = 0.086 nM and 0.079 nM
SMILES = Cc1sc2c(c1C)C(c1ccc(Cl)cc1)=N[C@@H](CC(=O)NCCN(C)CCCCNC(=O)CCCCOc1cccc3c1C(=O)N([C@H]1CCC(=O)NC1=O)C3=O)c1nnc(C)n1-2; target = Bromodomain-containing protein 4, long isoform (BRD4, Homo sapiens, UniProt O60885); assay = degrader, Western blot, item: BRD4 long isoform; system = MV4-11; quantity = DC50; value = 27.9 nM
SMILES = Cc1nc(S(=O)(=O)Nc2cc3c(cc2Oc2cccc(COCC(C)C)c2)n(C)c(=O)n3C)cn1C; target = BRD4 BD1; quantity = IC50; value = > 17100 nM

Some of these lines once more:
SMILES = CC(=O)N1c2ccc(-c3ccc(CNC(=O)c4cn5cc(-c6cnc(N)nc6)nc(N6CCOCC6)c5n4)cc3)cc2CC[C@@H]1C; target = BRD4 BD2; assay = binding, competition with immobilised ligand; quantity = Kd; value = 0.89 nM
SMILES = Cc1cc2c(cc1N)n(C)c(=O)n2C; target = BRD4 BD2; quantity = IC50; value = > 14800 nM
